Assay results from different studies.
Several values in a cell are separate wells, animals, samples, runs or records. Numbers after ± are the reported error.

SMILES | system | setting | how to read | measurement | result
CC(C)(O)c1ncc([S@](N)(=O)=NC(=O)Nc2c3c(cc4c2CCC4)CCC3)s1 | healthy human subjects, plasma | oral, 100 mg | baseline: fed over fasted | AUC(0-t) fold change | 1.49 fold
CC(OS(=O)(=O)O)c1nc(-c2ccc3c(c2)CCC3NC(=O)c2cnn(C)c2)no1 (stereo not drawn) | human, pooled plasma | oral, 20 mg, 2 to 264 h | baseline: total radioactivity AUC | AUC(0-t) share of total radioactivity | 1.31% and ~1.31%
Cn1c(=O)oc2ccc(-c3ccc(CC(C#N)NC(=O)C4CNCCCO4)c(F)c3)cc21 (stereo not drawn) | human volunteers, plasma | 60 mg single dose, fasted, geometric mean |  | AUC(0-t) | 5370 ng·h/mL
CN1CCC[C@]1(C)/C=C/S(=O)(=O)NC(=O)Nc1c2c(cc3c1CCC3)CCC2 | human, plasma | oral, 100 mg twice daily, day 14, multiple ascending dose |  | AUC(0-t) | 216000 ng·h/mL
CC(C)[C@H](NC(=O)CNC(=O)[C@H](CCC(N)=O)NC(=O)[C@H](C)N)C(=O)O | human | up to 30 mg/kg three times daily, 3 days |  | AUC(0-t) increase over dose-proportional | 123%
CCc1cc(Nc2nc(-c3ccc(-n4cnc(C)c4)c(F)c3)cs2)c(C)cc1C | human, plasma | oral, 100 mg once daily, day 14, geometric mean |  | AUC(0-t) | 2730 ng·h/mL
CC(O)c1nc(-c2ccc3c(c2)CC[C@H]3NC(=O)c2cnn(C)c2)no1 (stereo partly drawn) | human, pooled plasma | oral, 20 mg, 2 to 264 h | baseline: total radioactivity AUC | AUC(0-t) share of total radioactivity | ~46.9%
O=C(CCc1ccc(CNC(C(=O)OC2CCCC2)C2CCCCC2)cn1)NO (stereo not drawn) | human, plasma | oral, 20 mg single dose, geometric mean |  | AUC(0-t) | 39.4 ng·h/mL
[2H]C([2H])([2H])NC(=O)c1ccc(N2C(=S)N(c3ccc(C#N)c(C(F)(F)F)c3)C(=O)C2(C)C)cc1F | healthy male human, plasma | oral, 160 mg, fasted, single dose |  | AUC(0-t) | 749000 ± 96900 ng·h/mL

A few entries again:
SMILES | system | setting | how to read | measurement | result
Cn1c(=O)oc2ccc(-c3ccc(CC(C#N)NC(=O)C4CNCCCO4)c(F)c3)cc21 (stereo not drawn) | human volunteers, plasma | 60 mg single dose, fasted, geometric mean |  | AUC(0-t) | 5370 ng·h/mL
